Measurements collected from several papers.
Values joined by “and” are separate records of one study, mostly repeats; a detail may differ. ± gives the spread as reported.
HRH1: Histamine H1 receptor (HRH1, Homo sapiens, UniProt P35367)
Sequence of UniProt P35367 (whole entry, looked up): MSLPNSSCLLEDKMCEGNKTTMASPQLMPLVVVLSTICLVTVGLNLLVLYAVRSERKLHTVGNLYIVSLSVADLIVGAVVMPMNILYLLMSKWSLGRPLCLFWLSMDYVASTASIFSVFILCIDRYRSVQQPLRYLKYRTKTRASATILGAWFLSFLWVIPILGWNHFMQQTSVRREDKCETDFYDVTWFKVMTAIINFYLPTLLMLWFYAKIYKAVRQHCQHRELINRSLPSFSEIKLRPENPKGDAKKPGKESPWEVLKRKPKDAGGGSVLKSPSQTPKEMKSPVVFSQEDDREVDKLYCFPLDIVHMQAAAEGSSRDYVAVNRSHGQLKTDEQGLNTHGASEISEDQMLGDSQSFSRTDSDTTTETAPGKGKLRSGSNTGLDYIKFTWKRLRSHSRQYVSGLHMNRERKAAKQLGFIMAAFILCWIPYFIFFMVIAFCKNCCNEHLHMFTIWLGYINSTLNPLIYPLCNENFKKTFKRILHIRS
Drd3: D(3) dopamine receptor (Drd3, Rattus norvegicus, UniProt P19020)
Sequence of UniProt P19020 (whole entry, looked up): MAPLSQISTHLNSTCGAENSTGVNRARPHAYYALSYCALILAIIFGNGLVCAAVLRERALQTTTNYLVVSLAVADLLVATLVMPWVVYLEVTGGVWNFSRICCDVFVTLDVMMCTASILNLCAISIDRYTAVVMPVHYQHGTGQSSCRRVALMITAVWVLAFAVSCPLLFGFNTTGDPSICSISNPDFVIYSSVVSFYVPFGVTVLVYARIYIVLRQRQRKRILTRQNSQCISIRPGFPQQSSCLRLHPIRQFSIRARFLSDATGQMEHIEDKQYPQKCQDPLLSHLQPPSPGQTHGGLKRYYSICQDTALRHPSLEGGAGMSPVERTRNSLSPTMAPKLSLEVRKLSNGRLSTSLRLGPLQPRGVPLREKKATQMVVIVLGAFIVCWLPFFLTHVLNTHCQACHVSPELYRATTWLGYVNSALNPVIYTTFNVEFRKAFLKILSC
Cnr1: Cannabinoid receptor 1 (Cnr1, Rattus norvegicus, UniProt P20272)
Sequence of UniProt P20272 (whole entry, looked up): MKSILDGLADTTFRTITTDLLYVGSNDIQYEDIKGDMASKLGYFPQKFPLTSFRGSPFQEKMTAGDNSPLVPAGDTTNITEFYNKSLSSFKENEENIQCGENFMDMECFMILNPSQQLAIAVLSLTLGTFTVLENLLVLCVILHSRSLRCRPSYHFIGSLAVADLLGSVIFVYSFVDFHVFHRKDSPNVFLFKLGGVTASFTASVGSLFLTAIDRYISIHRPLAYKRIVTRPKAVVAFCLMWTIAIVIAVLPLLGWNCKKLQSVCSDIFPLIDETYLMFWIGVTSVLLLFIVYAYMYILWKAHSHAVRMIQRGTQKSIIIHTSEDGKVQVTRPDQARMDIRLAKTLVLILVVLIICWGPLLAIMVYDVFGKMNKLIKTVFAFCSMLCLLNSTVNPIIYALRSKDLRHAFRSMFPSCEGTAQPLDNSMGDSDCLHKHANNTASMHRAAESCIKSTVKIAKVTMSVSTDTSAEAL
MSP: Male-specific submandibular salivary gland protein (MSP, Mesocricetus auratus, UniProt Q9QXU1)
Sequence of UniProt Q9QXU1 (whole entry, looked up): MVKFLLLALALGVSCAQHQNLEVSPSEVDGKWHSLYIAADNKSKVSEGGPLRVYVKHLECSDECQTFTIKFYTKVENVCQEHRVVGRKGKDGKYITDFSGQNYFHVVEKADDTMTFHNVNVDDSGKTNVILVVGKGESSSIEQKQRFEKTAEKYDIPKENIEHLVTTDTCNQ
Sequence of UniProt P20813 (whole entry, looked up): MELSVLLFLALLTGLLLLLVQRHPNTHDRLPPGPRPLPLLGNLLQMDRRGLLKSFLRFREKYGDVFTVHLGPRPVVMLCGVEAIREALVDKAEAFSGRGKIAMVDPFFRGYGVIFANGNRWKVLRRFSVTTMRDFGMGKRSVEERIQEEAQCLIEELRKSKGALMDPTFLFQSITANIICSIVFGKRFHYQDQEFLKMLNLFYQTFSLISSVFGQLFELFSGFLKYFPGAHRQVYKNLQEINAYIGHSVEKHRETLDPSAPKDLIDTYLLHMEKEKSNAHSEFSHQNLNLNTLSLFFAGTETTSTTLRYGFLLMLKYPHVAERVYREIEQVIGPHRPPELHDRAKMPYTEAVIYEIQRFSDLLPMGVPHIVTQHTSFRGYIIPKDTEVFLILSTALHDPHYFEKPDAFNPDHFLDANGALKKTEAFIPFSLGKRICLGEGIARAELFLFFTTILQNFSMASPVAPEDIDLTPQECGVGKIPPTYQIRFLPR
Sequence of UniProt Q12884 (whole entry, looked up): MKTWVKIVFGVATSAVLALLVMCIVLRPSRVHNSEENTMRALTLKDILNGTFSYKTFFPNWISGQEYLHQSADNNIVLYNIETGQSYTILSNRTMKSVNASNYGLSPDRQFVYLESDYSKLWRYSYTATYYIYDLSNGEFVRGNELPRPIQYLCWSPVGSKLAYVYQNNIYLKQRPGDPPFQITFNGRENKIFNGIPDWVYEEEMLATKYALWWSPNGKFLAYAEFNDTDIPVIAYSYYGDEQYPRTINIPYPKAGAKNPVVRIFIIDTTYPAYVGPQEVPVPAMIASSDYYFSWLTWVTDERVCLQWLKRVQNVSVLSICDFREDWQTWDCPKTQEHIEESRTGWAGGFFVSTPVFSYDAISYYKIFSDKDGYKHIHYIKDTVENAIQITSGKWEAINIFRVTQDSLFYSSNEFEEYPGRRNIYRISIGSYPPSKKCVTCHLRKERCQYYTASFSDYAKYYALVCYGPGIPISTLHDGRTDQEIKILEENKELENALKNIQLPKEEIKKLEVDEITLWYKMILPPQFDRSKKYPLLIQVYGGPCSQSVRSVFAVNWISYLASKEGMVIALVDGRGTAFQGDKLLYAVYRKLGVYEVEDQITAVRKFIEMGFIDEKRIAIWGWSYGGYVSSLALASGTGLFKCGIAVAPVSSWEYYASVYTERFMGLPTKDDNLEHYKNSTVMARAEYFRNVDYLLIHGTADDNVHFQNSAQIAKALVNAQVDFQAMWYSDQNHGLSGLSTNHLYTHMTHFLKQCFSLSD
Sequence of UniProt Q8NER1 (whole entry, looked up): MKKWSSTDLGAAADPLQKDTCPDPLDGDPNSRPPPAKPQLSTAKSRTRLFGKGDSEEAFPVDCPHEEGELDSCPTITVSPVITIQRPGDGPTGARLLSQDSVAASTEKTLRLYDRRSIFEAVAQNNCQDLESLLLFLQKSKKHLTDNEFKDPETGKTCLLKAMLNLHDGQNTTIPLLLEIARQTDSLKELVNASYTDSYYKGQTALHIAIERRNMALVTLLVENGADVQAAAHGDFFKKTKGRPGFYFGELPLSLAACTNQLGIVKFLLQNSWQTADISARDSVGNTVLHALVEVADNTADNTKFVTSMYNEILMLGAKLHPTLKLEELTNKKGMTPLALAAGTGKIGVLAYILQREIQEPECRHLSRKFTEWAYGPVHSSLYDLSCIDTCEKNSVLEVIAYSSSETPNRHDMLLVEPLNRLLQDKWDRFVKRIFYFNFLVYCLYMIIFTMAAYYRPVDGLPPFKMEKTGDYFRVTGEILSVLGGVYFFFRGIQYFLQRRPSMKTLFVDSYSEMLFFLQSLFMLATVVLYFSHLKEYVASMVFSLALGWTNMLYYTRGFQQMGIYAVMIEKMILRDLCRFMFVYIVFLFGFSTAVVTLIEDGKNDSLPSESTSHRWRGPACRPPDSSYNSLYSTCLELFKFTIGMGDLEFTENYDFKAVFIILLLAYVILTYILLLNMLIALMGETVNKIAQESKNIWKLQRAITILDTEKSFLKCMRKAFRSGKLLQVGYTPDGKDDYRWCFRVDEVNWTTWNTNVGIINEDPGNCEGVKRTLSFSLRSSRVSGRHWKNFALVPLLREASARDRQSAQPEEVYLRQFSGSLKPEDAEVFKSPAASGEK
Sequence of UniProt Q16690 (whole entry, looked up): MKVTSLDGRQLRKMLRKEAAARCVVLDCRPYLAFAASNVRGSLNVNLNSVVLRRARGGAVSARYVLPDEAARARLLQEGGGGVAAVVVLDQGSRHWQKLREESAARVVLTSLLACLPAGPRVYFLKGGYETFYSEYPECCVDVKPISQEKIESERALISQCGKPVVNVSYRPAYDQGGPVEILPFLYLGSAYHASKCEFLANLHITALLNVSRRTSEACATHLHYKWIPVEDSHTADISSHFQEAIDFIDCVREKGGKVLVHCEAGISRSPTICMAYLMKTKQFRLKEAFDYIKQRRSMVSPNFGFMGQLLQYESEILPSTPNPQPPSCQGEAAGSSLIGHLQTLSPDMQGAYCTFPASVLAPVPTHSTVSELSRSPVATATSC
Sequence of UniProt P35462 (whole entry, looked up): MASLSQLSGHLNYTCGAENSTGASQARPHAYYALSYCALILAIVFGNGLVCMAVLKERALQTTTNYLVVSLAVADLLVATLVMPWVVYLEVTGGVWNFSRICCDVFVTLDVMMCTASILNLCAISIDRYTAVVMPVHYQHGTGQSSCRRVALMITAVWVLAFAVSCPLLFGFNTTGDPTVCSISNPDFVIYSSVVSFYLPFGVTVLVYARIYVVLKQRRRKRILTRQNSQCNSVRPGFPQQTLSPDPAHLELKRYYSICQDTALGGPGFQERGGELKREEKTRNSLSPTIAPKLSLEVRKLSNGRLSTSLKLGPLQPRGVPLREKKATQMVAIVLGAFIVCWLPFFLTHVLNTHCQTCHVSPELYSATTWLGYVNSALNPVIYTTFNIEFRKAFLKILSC
Sequence of UniProt P47900 (whole entry, looked up): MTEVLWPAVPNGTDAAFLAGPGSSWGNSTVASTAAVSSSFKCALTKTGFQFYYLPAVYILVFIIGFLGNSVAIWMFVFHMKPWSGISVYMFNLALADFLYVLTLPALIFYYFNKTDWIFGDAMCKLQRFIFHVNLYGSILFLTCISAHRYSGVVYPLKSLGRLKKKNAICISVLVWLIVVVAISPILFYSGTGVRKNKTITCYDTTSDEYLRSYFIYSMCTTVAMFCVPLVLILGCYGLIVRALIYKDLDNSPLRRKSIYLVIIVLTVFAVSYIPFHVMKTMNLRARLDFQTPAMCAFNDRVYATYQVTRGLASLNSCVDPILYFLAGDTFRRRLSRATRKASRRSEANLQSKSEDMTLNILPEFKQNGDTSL

| Structure (SMILES) | target | assay | test system | setting | Ki |
| --- | --- | --- | --- | --- | --- |
| Cc1nc(N)sc1CCCNC(=N)NCCCCCCCCNC(=N)N | HRH1 | ligand displacement, radioligand |  | cell membranes | 1780 nM |
| CCCN(CC[C@]1(O)C[C@@H](NC(=O)c2cccc(-c3noc(C)n3)c2)C1)[C@H]1CCc2nc(N)sc2C1 (relative stereo) | Drd3 | ligand displacement, radioligand |  | cell membranes | 0.53 nM |
| CN[C@H]1CC[C@@H](c2ccc(Cl)c(Cl)c2)c2ccccc21 | Cytochrome P450 2B6 (CYP2B6, Homo sapiens, UniProt P20813) | enzyme activity, competitive inhibitor | reconstituted system | 5 min, pH 7.4, with: 7-MFC | 380 nM and 220 nM and 300 nM |
| Cc1c(/N=N/c2ccccc2)nn(-c2ccc(Cl)cc2Cl)c1-c1ccc(Cl)cc1 | Cnr1 | radioligand binding | rat brain membranes | trans isomer, 454 nm light, with: [3H]CP55940 0.6 nM | 538 ± 66 nM |
| CCCN(CCC1(O)CC(NC(=O)c2ccc(F)c(Cl)c2)C1)[C@H]1CCc2nc(N)sc2C1 (stereo in doubt) | Drd3 | ligand displacement, radioligand |  | cell membranes | 0.43 nM |
| N=C(N)NCCCCCCCCCCNC(=N)NCCCc1c[nH]cn1 | HRH1 | ligand displacement, radioligand |  | cell membranes | 813 nM |
| O=C(Cc1cccs1)N[C@@H](Cc1cccc(C(=O)O)c1)B(O)O | Beta-lactamase ADC-7 (Acinetobacter baumannii, UniProt Q6DRA1) | inhibitor |  | 5 min preincubation, pH 7.4, room temperature, with: nitrocefin | 53 ± 4 nM |
| COCCN1C(=O)C(O)=C(C(=O)c2ccccc2)C1c1cc(OC)ccc1OC (centres unmarked) | FPR1 (Homo sapiens, UniProt P21462) | ligand displacement in cells |  |  | < 2000 nM |
| CC1(CCN2CCc3ccccc3C2)Cc2cc(Cl)ccc2C1=O (centres unmarked) | DRD3 (Homo sapiens, UniProt P35462) | binding, radioligand binding |  | with: [3H]N-methylspiperone | 174 nM |
| CCCCCCCCCCCCO | MSP | binding, fluorescence displacement |  | with: 1-AMA 2 µM | 170 nM |
| O=C(O)C(Cc1c[nH]nn1)[C@@H]1CCN[C@H]1C(=O)O (mixture of isomers) | NMDA receptor, rat | binding | cortical synaptosomes | with: [3H]-CGP 39653 | > 100000 nM |
| CCCN(CC[C@]1(O)C[C@@H](NS(=O)(=O)c2ccc(F)cc2)C1)[C@H]1CCc2nc(N)sc2C1 (relative stereo) | Drd3 | ligand displacement, radioligand |  | cell membranes | 1.9 nM |
| N=C(NCCCCCCCCCCCCN)NCCCc1c[nH]cn1 | HRH1 | ligand displacement, radioligand |  | cell membranes | 195 nM |
| Cc1ccc(-c2ncc(NC(=O)Cn3cc(COc4ccc(-c5nc6ccc(C)cc6[nH]5)cc4)nn3)s2)cc1 | α-glucosidase | inhibitor, Lineweaver-Burk secondary plot |  |  | 8300 nM |
| N=C(N)NCCCCCCCCCCCCNC(=N)NCCCc1c[nH]cn1 | HRH1 | ligand displacement, radioligand |  | cell membranes | 257 nM |
| CC(C)[C@H](NC(=O)[C@H](CCC(N)=O)NC(=O)[C@H](CCC(=O)O)NC(=O)[C@H](CCC(N)=O)NC(=O)[C@H](CC(N)=O)NC(=O)[C@@H]1CCCCN1C(=O)CNC(=O)COCCOCCNC(=O)[C@H](CCCNC(=N)N)NC(=O)[C@@H](N)Cc1ccccc1)C(=O)O | FAP (Homo sapiens, UniProt Q12884) | enzyme activity, inhibitor, fluorescence |  | pH 7.5 | 14000 nM and 14800 nM |
| CNc1nc(C#CCCCC(=O)OC)nc2c1ncn2[C@H]1C[C@H](OP(=O)(O)O)[C@]2(COP(=O)(O)O)C[C@H]12 | P2Y purinoceptor 1 (P2RY1, Homo sapiens, UniProt P47900) | ligand displacement, radioligand |  | cell membranes | 2200 nM |
| CC(C)[C@H](NC(=O)[C@@H](NC(=O)[C@@H](NC(=O)[C@H](C)NC(=O)[C@H](Cc1ccccc1)NC(=O)[C@@H](N)CC(=O)O)[C@@H](C)O)[C@@H](C)O)C(=O)O | Na(+)/H(+) exchange regulatory cofactor NHE-RF2, PDZ domain 2 (Homo sapiens, UniProt Q15599) | fluorescence polarization competition |  | with: FITC-labelled LPA2 peptide tracer | 254000 ± 6600 nM |

| Structure (SMILES) | target | assay | test system | setting | Ki |
| --- | --- | --- | --- | --- | --- |
| O=C(O)c1cc(O)c(O)c(O)c1 | dextransucrase Streptococcus mutans | enzyme activity, inhibitor |  | pH 6.0, 37 °C, mixed inhibition, with: sucrose 2 to 40 mM | 110000 nM |
| CCCCCCCCCCO | MSP | binding, fluorescence displacement |  | with: 1-AMA 2 µM | 130 nM |
| O=C(O)c1c(Cl)c(Cl)c(Cl)c(Cl)c1-c1c2cc(I)c(=O)c(I)c-2oc2c(I)c(O)c(I)cc12 | Dual specificity protein phosphatase 5 (Homo sapiens, UniProt Q16690) | enzyme activity, noncompetitive inhibitor |  | 15 min, incandescent light | 540 ± 30 nM |
| CCCN(CC[C@]1(O)C[C@@H](NS(=O)(=O)c2cccc(Cl)c2)C1)[C@H]1CCc2nc(N)sc2C1 (relative stereo) | Drd3 | ligand displacement, radioligand |  | cell membranes | 2.5 nM |
| O=C(O)C(CCCO)[C@@H]1CCN[C@H]1C(=O)O (relative stereo) | NMDA receptor, rat | binding | cortical synaptosomes | with: [3H]-CGP 39653 | > 100000 nM |
| O=C(CCCc1ccccc1)N(O)CCCP(=O)(O)O | 1-deoxy-D-xylulose 5-phosphate reductoisomerase, apicoplastic (DXR, Plasmodium falciparum, UniProt O96693) | inhibitor, Lineweaver-Burk plot |  | with: DXP varied, NADPH 150 µM | 470 nM |
| CCCN(CCC1(O)CC(NC(=O)c2ccc(Cl)cc2)C1)[C@H]1CCc2nc(N)sc2C1 (stereo in doubt) | dopamine D1-like receptor, rat | radioligand binding | rat striatal membranes | with: [3H]SCH23390 | 15100 ± 780 nM |
| Cc1cc(N/N=C/c2c(C)n(C)n(-c3ccccc3)c2=O)c2cc3c(cc2n1)OCO3 | APEX1 (Homo sapiens, UniProt P27695) | enzyme activity, inhibitor |  |  | 680 nM |
| CCCN(CCC1(O)CC(NC(=O)c2ccccc2Cl)C1)[C@H]1CCc2nc(N)sc2C1 (stereo in doubt) | dopamine D1-like receptor, rat | radioligand binding | rat striatal membranes | with: [3H]SCH23390 | 49700 ± 2810 nM |
| CC(C)=CCC[C@@H](C)CC=O (racemic) | MSP | binding, fluorescence displacement |  | with: 1-AMA 2 µM | 110 nM |
| CCCCCCCCOP(=O)(O)C(C)=O | Pyruvate dehydrogenase E1 (Sus scrofa, UniProt F1SGH5+P29804) | enzyme activity, inhibitor, NADH formation |  | with: pyruvate, competitive | 57000 ± 5000 nM |
| CCCN(CC[C@]1(O)C[C@@H](NS(=O)(=O)c2ccccc2Cl)C1)[C@H]1CCc2nc(N)sc2C1 (relative stereo) | Drd3 | ligand displacement, radioligand |  | cell membranes | 0.59 nM |
| Cc1ccccc1/N=N/c1c(C)c(C(=O)NN2CCCCC2)nn1-c1ccc(Cl)cc1Cl | Cnr1 | radioligand binding | rat brain membranes | trans isomer, 454 nm light, with: [3H]CP55940 0.6 nM | 294 ± 66 nM |
| O=C(CO)[C@H](O)[C@@H](O)CO | L-xylulose reductase (Homo sapiens, UniProt Q7Z4W1) | quinone redox cycling, inhibitor |  | with: 9,10-phenanthrenequinone 20 µM | 940000 nM |
| CC(C(=O)NCc1ccc(C(F)(F)F)nc1OC1CCNCC1)c1ccc(NS(C)(=O)=O)c(F)c1 (centres unmarked) | TRPV1 (Homo sapiens, UniProt Q8NER1) | calcium influx, antagonist, FLIPR | CHO cells expressing human TRPV1 | with: capsaicin | 1000 to 10000 nM |
| CCCN(CCC1(O)CC(NC(=O)c2ccccc2F)C1)[C@H]1CCc2nc(N)sc2C1 (stereo in doubt) | dopamine D1-like receptor, rat | radioligand binding | rat striatal membranes | with: [3H]SCH23390 | 53600 ± 8380 nM |
| CCCCCCCCOC(=O)NS(=O)(=O)Nc1ccc(-c2cc3ccccc3[nH]2)cc1OC | Polyunsaturated fatty acid lipoxygenase ALOX15 (Oryctolagus cuniculus, UniProt P12530) | arachidonic acid oxygenation, inhibitor |  | with: arachidonic acid | 14600 ± 3140 nM |

A few entries again:
| Structure (SMILES) | target | assay | test system | setting | Ki |
| --- | --- | --- | --- | --- | --- |
| CCCN(CC[C@]1(O)C[C@@H](NS(=O)(=O)c2ccccc2Cl)C1)[C@H]1CCc2nc(N)sc2C1 (relative stereo) | Drd3 | ligand displacement, radioligand |  | cell membranes | 0.59 nM |
| Cc1ccccc1/N=N/c1c(C)c(C(=O)NN2CCCCC2)nn1-c1ccc(Cl)cc1Cl | Cnr1 | radioligand binding | rat brain membranes | trans isomer, 454 nm light, with: [3H]CP55940 0.6 nM | 294 ± 66 nM |
| O=C(CO)[C@H](O)[C@@H](O)CO | L-xylulose reductase (Homo sapiens, UniProt Q7Z4W1) | quinone redox cycling, inhibitor |  | with: 9,10-phenanthrenequinone 20 µM | 940000 nM |
| CC(C(=O)NCc1ccc(C(F)(F)F)nc1OC1CCNCC1)c1ccc(NS(C)(=O)=O)c(F)c1 (centres unmarked) | TRPV1 (Homo sapiens, UniProt Q8NER1) | calcium influx, antagonist, FLIPR | CHO cells expressing human TRPV1 | with: capsaicin | 1000 to 10000 nM |
| CCCN(CCC1(O)CC(NC(=O)c2ccccc2F)C1)[C@H]1CCc2nc(N)sc2C1 (stereo in doubt) | dopamine D1-like receptor, rat | radioligand binding | rat striatal membranes | with: [3H]SCH23390 | 53600 ± 8380 nM |
| CCCCCCCCOC(=O)NS(=O)(=O)Nc1ccc(-c2cc3ccccc3[nH]2)cc1OC | Polyunsaturated fatty acid lipoxygenase ALOX15 (Oryctolagus cuniculus, UniProt P12530) | arachidonic acid oxygenation, inhibitor |  | with: arachidonic acid | 14600 ± 3140 nM |
